Published values of several laboratories.
Numbered parts are unrelated; each lists some results of a single study.

Block 1
Target: Sal-like protein 4, full length isoform A (SALL4, Homo sapiens, UniProt Q9UJQ4, residues 1-1053)
UniProt Q9UJQ4, sequence (whole entry, looked up): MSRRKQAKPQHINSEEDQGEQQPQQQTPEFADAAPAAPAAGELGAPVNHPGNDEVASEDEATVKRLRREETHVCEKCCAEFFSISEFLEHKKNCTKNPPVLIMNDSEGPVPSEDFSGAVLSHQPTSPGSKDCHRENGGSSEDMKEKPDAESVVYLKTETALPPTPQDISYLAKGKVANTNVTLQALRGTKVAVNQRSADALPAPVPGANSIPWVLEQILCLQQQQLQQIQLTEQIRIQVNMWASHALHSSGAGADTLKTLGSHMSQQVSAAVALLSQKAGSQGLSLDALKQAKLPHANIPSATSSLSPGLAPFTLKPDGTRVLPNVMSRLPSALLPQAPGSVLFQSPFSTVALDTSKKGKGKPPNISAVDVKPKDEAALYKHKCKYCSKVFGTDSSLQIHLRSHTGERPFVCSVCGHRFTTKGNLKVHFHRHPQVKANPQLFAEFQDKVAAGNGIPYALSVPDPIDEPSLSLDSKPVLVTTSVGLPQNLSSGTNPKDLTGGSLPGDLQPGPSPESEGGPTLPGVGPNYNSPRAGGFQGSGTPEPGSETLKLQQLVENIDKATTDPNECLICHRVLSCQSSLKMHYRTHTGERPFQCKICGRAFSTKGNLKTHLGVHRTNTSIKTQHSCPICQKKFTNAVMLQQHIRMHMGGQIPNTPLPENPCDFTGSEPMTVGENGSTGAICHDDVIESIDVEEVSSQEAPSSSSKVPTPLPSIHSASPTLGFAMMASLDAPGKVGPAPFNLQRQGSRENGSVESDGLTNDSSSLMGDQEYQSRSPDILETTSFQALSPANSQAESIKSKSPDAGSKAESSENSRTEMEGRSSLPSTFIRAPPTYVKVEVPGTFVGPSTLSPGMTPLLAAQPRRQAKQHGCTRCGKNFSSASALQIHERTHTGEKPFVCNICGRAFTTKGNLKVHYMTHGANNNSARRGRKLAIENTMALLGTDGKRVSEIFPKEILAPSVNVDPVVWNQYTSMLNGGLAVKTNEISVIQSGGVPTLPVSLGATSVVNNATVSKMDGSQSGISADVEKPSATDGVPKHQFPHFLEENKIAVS
Method: universal PBM
Molecule type: double-stranded DNA, one strand shown
Matrix: in vitro
Tested at: 600 nM
Notes: 8-mer, flanks averaged, mean of replicates
Reading: higher = stronger binding
Quantity: E-score
ATATTGTG: 0.313
ATTGAGCG: -0.033
CATGAAAC: 0.205
CGATACTA: 0.163
GGTTTGGA: -0.0165
CTAGAAGA: 0.0891
TCGTGGAA: 0.144
AACGTACG: 0.0367
AGCCAGGG: -0.3
AGTCCATG: -0.103
CTGGGTGC: -0.347
ACAAAAAA: 0.318
AGGTGGGG: -0.118
AGACATGG: 0.15
CCGGTAAA: 0.0064
ACACTCTC: 0.0527
CGACGAGC: -0.241
CCGGACAC: -0.28
GTGCAATA: 0.196
GGTCACCA: -0.353
CACTCCAC: -0.0715

Block 2
Target: Interferon regulatory factor 7, full length, phosphomimetic (IRF7, Homo sapiens, UniProt Q92985, residues 1-503, S101K/S471D/S472D/S475D/S476D/S477D/S483D/S484D/S487D)
Method: protein-binding microarray
Molecule type: double-stranded DNA, one strand shown
Matrix: in vitro
Tested at: 250 nM
Notes: 60-bp whole probe
Together with: salmon DNA 0.4 mg/ml
Relative to: random background probes
Reading: higher = stronger binding
Quantity: log fluorescence
Constant ends, left off below: GCCTAGCAC … GTCTTGATTCGCTTGACGCTGCTG
Target sequence (chain): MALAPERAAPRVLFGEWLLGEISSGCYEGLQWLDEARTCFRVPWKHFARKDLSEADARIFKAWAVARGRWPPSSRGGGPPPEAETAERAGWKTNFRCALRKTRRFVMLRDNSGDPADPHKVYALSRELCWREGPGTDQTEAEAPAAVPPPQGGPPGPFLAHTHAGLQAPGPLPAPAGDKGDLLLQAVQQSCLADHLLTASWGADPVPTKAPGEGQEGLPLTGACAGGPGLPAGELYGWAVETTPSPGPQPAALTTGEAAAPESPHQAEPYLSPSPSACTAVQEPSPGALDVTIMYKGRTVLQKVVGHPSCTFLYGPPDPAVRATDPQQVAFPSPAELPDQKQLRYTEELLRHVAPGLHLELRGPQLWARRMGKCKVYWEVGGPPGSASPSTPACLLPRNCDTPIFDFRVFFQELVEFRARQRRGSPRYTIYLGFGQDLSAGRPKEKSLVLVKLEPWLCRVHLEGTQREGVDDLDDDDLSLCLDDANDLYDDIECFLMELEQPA
TACTTTCTACTTCTCTTTTTGTGCTAG: 3.89 z-score
TTAGGTATCCTTCGCCTTTAGTGCTAG: 0.11 z-score
GACGATTCCAGTTTAGAGACGTGCTAG: 0.526 z-score
GACGGACTGGACTATCGGGAAGTGCTA: -0.644 z-score
TTAGATTTCGGGACTGGAATAGTGCTA: 0.757 z-score
TCAGGTTTCACTTTAAAACTGTGCTAG: 10.4 z-score
GACGGTTTCGACTATCGGGCCGTGCTA: 5.13 z-score
GGCGGTATCCTTCTCCTGACGTGCTAG: -0.318 z-score
TTAGATATCTGTTTCGATTAGTGCTAG: 3.96 z-score
TCATTTTTCTAATTGAAACTGTGCTAG: 2.95 z-score
TCAGAAATCGGTGATCAGACTGTGCTA: -0.483 z-score
TTATGTTTCGGACTGGGTTAGTGCTAG: 1.54 z-score
TTAGGTTTCGATTCCGGTTAGTGCTAG: 12.6 z-score
TCTTTTTGCTTTCTTTATGCGTGCTAG: 2.23 z-score
ATGACAATGATGTTTTGAGTTGTGCTA: -0.301 z-score
GACGGTATCGACACTGAGGACGTGCTA: -0.294 z-score
TCAGCTTTGCCTTCAGCACTGTGCTAG: -0.615 z-score
TTAGGTCTCGGTCTCGGCTAGTGCTAG: 1.22 z-score
GACGGTATCGGACTGGAGACGTGCTAG: -0.542 z-score

Block 3
Target: RNA binding protein fox-1 homolog 2, RRM domain, GST-SBP tag (RBFOX2, Homo sapiens, UniProt O43251-10, residues 100-194)
Method: RNA Bind-n-Seq
Molecule type: RNA
Matrix: in vitro
Tested at: 365 nM
Notes: natural RNA segment, single round, ends assumed
Relative to: no-protein control
Reading: higher = stronger binding
Quantity: RBNS enrichment (R)
Construct (chain): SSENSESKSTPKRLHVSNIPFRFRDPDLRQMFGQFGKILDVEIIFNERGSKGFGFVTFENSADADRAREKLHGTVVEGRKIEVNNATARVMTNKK
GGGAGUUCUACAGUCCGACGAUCCCUCCUUUGAAUUGAAAUGGCACAUUAAGACUUGUCACGGCUUCUCACUGGGACUGGAGACCUCGUUCCUUCACCCCGCGUGUCGCCAGCCUCUGGGUCCAGCCAGAGCCUGGAAUUCUCGGGUGCCAA: 0.446
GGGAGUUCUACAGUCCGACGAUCUCAACAGACACAGGCCUGGUACCUGGGAUAAAGUUGCAGCGUCCCACCAUCCACCAGACAGACCACCUGACCCCUUCUCAACUCUGUAACAUGGACGCAACCUCAACCCAUGGAAUUCUCGGGUGCCAA: 0.665
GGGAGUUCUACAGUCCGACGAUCUAAAGGUUUUGGAGCCCACCUAGGGGUAGGUGCAGCUUUAUUGGCUUUUCUGUGGAUUCUCUCAGUGGACCCACACCAUCUCUAUGUCUCUCCACUCUCCUGCCUUCAGCUGGAAUUCUCGGGUGCCAA: 0.339
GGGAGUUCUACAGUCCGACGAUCGGGAGCCCCGAGGGUCUUUGCAGGAGUUGAUCUUGCUGUGUAGAGCACUAUUGUCCCGGGGUUGACCCCUGGGGCAGUUCUUGGUGGGUUCUGCUGGGCAGAACACAUGGUGGAAUUCUCGGGUGCCAA: 0.303
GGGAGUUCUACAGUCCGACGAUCGUCCCUCAGUAUUGAACUUGGCUGCUUGUGGGAUCCAGUCCUGGAGGACAGGCAUCAAGUUCUUAGCCUCUGUAGCUCUUAGCUUUCCCAUCUUUCCCUGCAAGGCCACAUGGAAUUCUCGGGUGCCAA: 0.679
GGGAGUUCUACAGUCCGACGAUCUCCACACUAUAAAUGAUAUGACUACUGUUUGGGGUUUCUGGGCCCCCAUCCGUGUACGUAUGUGGCAUUUCCAGGUAUGACUGAGUGUGAGAGACAUGUCAGAGGCUCUUUGGAAUUCUCGGGUGCCAA: 0.8
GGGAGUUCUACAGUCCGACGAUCGGACAAAGUUGGGUUGAUAGGAUAUUUUAGAUUCAUUUUACCUUUGACAAGGGCAGGCCUUGAAUUGGGAGCAGCAGCCACCUGGCCUCACUCUGGCCACAGGUGACACUUGGAAUUCUCGGGUGCCAA: 0.648
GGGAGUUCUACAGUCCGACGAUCAGUUUCAGGGCUGGGCAGCAGGUUACUGGAGAGGCAGGCAAGAAGCGUCCUUACCUUCUCUCAUUCCCCAGCUCUCAUUCUGAGCCUUUGGUCCCUGACCUUAUGGCCAUUGGAAUUCUCGGGUGCCAA: 0.278

Block 4
Target: Protein max, full length (MAX, Homo sapiens, UniProt P61244-2, residues 1-151)
Method: protein-binding microarray
Molecule type: double-stranded DNA, one strand shown
Matrix: in vitro
Tested at: not given
Notes: k-mer, scored over probes, only values ≥0.25
Reading: higher = stronger binding
Quantity: E-score
AGCGTGTG: 0.386
ATACATGC: 0.335
CTACATGC: 0.325
AAGGCATG: 0.369
CACGCCTA: 0.332
AACACGCA: 0.384
GTGCTAGA: 0.267
ACCTCACG: 0.281
ATGCATGG: 0.321
GCTATCAC: 0.267
CAGACACG: 0.358
CCATGCGG: 0.459
CGCGGGCA: 0.322
GCATGGAA: 0.392
CCCGTGCC: 0.316
CGTGTTAG: 0.388
GCCCGCCC: 0.281
ATGTGGCG: 0.365

Excerpt of the above (block 4):
GCCCGCCC: 0.281
CTACATGC: 0.325
GTGCTAGA: 0.267
ATGTGGCG: 0.365
GCTATCAC: 0.267
ATACATGC: 0.335
CACGCCTA: 0.332
